Results of several laboratories.
Each numbered part is a random draw from the data of one study; scales do not carry over between parts. Changes are numbered by the printed parent chain.
UniProt P54762, sequence (whole entry, looked up): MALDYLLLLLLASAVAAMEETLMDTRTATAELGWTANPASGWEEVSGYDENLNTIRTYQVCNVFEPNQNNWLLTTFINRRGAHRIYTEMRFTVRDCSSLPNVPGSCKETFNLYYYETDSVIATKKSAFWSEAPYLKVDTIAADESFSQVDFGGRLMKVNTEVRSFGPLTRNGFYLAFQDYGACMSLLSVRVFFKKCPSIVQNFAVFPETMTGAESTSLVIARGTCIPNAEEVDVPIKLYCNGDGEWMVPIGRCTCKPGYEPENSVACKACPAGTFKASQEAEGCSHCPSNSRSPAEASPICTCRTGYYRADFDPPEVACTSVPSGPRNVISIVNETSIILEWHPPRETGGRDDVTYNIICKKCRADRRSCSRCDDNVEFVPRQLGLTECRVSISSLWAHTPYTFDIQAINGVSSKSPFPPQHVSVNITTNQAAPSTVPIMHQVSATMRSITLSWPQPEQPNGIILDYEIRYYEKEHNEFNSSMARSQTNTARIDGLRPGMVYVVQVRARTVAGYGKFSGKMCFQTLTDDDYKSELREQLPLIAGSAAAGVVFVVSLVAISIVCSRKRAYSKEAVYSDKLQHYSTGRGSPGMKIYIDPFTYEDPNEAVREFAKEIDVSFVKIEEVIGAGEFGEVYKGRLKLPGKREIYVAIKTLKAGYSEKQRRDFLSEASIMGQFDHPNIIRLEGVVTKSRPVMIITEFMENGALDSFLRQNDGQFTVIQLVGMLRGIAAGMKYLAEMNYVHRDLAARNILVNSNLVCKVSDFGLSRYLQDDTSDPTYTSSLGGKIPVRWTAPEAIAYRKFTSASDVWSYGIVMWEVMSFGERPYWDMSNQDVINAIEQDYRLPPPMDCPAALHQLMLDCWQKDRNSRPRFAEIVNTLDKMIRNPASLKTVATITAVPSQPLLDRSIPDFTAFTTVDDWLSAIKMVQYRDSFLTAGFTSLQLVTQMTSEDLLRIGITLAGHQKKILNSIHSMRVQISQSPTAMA

Study 1
Target: Hepatocyte nuclear factor 3-alpha (Foxa1, Mus musculus, UniProt P35582, residues 1-468, full length assumed)
UniProt P35582, sequence (whole entry, looked up): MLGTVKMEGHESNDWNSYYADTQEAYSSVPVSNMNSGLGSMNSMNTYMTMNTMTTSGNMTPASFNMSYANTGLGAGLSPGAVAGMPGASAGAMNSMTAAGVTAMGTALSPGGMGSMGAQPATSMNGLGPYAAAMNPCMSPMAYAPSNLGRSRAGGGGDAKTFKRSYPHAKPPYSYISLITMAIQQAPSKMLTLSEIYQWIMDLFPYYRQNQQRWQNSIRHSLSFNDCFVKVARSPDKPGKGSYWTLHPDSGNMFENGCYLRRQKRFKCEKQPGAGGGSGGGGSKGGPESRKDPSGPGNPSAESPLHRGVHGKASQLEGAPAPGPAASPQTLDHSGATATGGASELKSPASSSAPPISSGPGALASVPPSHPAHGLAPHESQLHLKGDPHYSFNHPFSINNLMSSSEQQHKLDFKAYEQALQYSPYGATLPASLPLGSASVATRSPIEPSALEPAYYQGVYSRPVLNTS
Technique: EMSA with sequencing
Form: double-stranded DNA, one strand shown
Medium: in vitro
Tested at: 10 and 20 nM
Notes: whole designed probe, mean of two concentrations, ends assumed
Baseline: negative control set to 0
Reading: higher = stronger binding
Constant ends, left off below: GTGAGCGGTGCCCATTGATGGGGAAC … TTTCACTGGGATCGTGGGGAC
Oligonucleotide | normalised bound fraction
ACTGCCTGCTCCCAGATATATAGCATTAGGGCAGGGATAAATTTCAAGCTGGCAAAAGTCCAAACCCAACAGTTGCAGCTGTAGTAGCTGCCTTGTTTACAAAGCAATTCAGGAAGCTTTTAGAGGGCAGAGTGCACCAGACAGAAGGGGGTCTGTACGCAAAACATGGATGCATCCCAATGCTTTCAGAACA | 0.265 ratio
TTAAAATTCCAAAGCACAAGTAGTAAAACAAATAAACATAAAAGGTTTGATTCAAAATTAAATATTTTTTCATTCTACAAAGGATATAACAAAGTAAATAAAGAAATAAAGAATAGGAGAATATATTTATGCCTCAAACAAAAAAAATCATCTGGCATATACAAGAAATTCCTACAAGTCAACATTTTAAAAA | 0.376 ratio
GCCACTCCCCGAGGGCTTTGAGGGATCTTTGAACGTTGTGCCCATCGCTGCTGCCGCTAGGGGGCCCAGGAGGGCCGCGGTTTGGAGCTGCTCTGTTTACACAAAGGGAATAGGGTCCCAGTGGGTGTTGCCGTTCGTCCATGACAGCCCACTGGATCAGGTCCCACAGTGCAAGCAATAACGTTTTGGGGGA | 0.446 ratio
CAAGTTTGTGGTCCAGGAGCAACAGGTTATGCCATACAGCCTAGGTGTGTAGTAGGCTACACACCGTCTATGTTTGTGTTGTACACTCTTTGTGCAAACATTGTTGATGAAATCTTCCATGACTCATCTCAGAACATACCCCTGTTGTTAAGCGATACATGACTGTACTTTTTTTAAAAAGTCCAAGGATATA | 0.416 ratio
ATCTTCCCCCTCTTCCTTGCCCCACCAGCTCACCTTCCCGGGTCAAAGTAAACAAGTGTTTACTTTGAAGCCGGCATTCGTTAACCCTCTTCTGGCGCAAACTGCCAGAGCAAACAGATGAATCATGGTCCTTTGGCGACGCCAGGCTCCGGGAGAGCAAAGCACCGTGTCAGGGCCATGATCCGGGGTGGCC | 0.463 ratio
ACATATGACCATTTTTTGGTTTATGTTTGGTCCCCTCTGATTGTTACATATACTTGAATTGCTTGCTTGGATGGGGAGCATACAAAATAATTAAGTAAACATGAAGAAAAGTAGCTTGATTCGTTGCTAGGCTGAAGGATCACATAGAAAAGTTTTTTTCCAATTGCCCAAAATTAAGTACAAATACACACAT | 0.38 ratio
GAGCTGCTTGCAATTGAGTTGTATGTATGCTTCCACTTAATACGTCCTGCCGAGCCTGTAAGCCAACCACTTCCGGCAGGAATCTGCCCTCTGTGTTTACCTACTCTCTTTTTATGTCTTATTCCCAGAATGACTGGGGACCAAAGGAATCCTTTGCAGGAGTTTTCTCCAGACAGACAGTTCCACATGCTAG | 0.26 ratio
ACACAGAAACCCTTTGGTAACATGAGCTGTGTTTCCTTGTTAAATTGACCCTGCTGTCTGACACCCTCTGTTGCTACTGTTACATCACAGCTAGGTCATCTTCCAGATTCCTTTACCAACTATGTGAGAATCTACTAAAAGCATTCTCTAATAATACAGTCAGCCCTGGGAAAGACATCTGAGCTTTAATTAA | -0.0498 ratio

Study 2
Target: CREM, bZIP domain (human)
Technique: DHFR protein complementation
Medium: yeast
Notes: single substitutions, most at no-binding floor
Baseline: wild-type JUN-FOS pair
Reading: higher = stronger binding
Starting sequence: JUN, bZIP domain (human); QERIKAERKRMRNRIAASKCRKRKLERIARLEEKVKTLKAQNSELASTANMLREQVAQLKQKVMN; partner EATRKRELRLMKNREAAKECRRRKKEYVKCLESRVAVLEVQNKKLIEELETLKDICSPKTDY
Variant | binding fitness
A40P | -1.52 natural log
A49L | -1.44 natural log
N42D | -1.45 natural log
E33S | -1.37 natural log
Q55T | -1.47 natural log
Q55P | -1.57 natural log
S43P | -1.56 natural log
Q41A | -1.48 natural log

Study 3
Target: Protein max, full length (MAX, Homo sapiens, UniProt P61244-2, residues 1-151)
Technique: protein-binding microarray
Form: double-stranded DNA, one strand shown
Medium: in vitro
Tested at: not given
Notes: k-mer, scored over probes, only values ≥0.25
Reading: higher = stronger binding
Oligonucleotide | E-score
ACATGTGA | 0.476
CCCATGAG | 0.311
GGCGTGTA | 0.34
CACATGGC | 0.487
CACGAGCG | 0.35
CAGCCACG | 0.346
CACACGCC | 0.357
CCACGCGC | 0.462

Other studies, line by line
Structure (SMILES) | target | assay | setting | how to read | endpoint | result
CCC(=O)Nc1ccc2ncnc(Nc3cccc(Br)c3)c2c1 | Ephrin type-B receptor 1 (EPHB1, Homo sapiens, UniProt P54762) | enzyme activity, inhibitor | 0.5 µM | baseline: control | remaining activity | 93.3%

A few entries again (study 3):
Oligonucleotide | E-score
CACGAGCG | 0.35
CAGCCACG | 0.346
CACACGCC | 0.357
